Measurements from different studies.
Each line is one published result; not all experiments were run side by side. Values joined by “and” are separate records of one study, mostly repeats; a detail may differ. ± gives the spread as reported.
Sequence of UniProt P07741 (whole entry, looked up): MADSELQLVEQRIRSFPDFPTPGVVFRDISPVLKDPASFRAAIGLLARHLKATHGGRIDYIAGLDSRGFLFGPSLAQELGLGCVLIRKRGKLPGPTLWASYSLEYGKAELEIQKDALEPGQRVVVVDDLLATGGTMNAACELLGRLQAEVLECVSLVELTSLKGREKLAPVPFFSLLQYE
Sequence of UniProt P09211 (whole entry, looked up): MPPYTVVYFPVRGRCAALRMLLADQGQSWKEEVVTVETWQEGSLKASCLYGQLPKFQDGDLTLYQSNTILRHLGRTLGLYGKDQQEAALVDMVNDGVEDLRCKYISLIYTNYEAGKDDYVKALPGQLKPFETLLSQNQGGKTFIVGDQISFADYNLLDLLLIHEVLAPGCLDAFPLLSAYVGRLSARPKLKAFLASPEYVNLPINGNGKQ
Sequence of UniProt Q86X55 (whole entry, looked up): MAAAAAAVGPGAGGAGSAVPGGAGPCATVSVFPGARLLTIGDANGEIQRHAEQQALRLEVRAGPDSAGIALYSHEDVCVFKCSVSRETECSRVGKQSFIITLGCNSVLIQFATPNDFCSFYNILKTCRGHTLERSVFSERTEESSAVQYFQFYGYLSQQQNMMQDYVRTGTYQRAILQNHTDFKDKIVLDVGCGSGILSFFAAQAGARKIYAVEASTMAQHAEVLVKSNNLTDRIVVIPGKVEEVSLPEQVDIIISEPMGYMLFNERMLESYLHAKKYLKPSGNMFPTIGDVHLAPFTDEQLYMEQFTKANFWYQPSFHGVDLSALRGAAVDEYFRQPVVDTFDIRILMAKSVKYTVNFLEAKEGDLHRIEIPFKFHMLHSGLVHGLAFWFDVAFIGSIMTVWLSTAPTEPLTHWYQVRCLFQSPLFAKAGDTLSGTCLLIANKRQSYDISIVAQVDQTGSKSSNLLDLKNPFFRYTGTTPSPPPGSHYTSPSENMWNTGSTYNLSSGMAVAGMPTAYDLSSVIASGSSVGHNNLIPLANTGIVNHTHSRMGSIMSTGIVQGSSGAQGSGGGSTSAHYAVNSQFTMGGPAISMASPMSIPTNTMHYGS
Sequence of UniProt Q04609 (whole entry, looked up): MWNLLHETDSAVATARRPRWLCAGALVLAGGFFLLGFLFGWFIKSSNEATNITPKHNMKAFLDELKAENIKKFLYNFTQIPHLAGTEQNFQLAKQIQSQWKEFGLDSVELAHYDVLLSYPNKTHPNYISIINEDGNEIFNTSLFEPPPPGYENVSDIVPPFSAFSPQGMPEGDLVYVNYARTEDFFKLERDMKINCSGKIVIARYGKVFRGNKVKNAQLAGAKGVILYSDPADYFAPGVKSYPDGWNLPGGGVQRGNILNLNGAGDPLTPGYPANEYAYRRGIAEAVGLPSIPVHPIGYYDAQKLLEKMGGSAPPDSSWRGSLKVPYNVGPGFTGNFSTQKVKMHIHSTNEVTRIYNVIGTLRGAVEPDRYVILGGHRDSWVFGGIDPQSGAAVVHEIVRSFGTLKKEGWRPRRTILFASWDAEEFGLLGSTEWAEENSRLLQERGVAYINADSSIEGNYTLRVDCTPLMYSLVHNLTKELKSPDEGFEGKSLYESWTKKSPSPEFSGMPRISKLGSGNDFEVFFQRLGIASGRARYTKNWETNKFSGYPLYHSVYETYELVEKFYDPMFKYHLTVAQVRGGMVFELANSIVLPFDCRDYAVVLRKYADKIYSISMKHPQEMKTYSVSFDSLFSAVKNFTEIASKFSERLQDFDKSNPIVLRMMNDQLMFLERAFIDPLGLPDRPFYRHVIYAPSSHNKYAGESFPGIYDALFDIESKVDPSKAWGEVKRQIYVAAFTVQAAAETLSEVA
Sequence of UniProt O95551 (whole entry, looked up): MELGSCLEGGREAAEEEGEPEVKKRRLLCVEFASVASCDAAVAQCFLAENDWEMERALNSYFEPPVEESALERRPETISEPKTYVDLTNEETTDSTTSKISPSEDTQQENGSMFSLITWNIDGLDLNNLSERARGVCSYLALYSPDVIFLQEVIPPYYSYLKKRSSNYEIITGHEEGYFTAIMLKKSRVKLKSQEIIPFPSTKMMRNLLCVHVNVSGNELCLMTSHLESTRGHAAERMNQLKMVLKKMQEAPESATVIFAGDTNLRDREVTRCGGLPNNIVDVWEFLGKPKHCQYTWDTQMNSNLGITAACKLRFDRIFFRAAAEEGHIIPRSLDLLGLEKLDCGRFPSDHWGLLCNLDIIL
Sequence of UniProt Q9Y3R4 (whole entry, looked up): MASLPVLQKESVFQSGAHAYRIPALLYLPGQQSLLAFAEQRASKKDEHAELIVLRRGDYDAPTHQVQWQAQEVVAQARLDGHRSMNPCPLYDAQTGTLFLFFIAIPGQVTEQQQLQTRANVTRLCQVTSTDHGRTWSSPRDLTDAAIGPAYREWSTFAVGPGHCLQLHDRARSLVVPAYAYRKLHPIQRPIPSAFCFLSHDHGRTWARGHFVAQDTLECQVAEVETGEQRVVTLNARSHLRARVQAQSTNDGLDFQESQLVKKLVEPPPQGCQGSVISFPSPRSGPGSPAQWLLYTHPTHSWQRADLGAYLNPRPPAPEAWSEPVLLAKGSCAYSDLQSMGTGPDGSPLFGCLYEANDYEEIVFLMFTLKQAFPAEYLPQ
Sequence of UniProt P31749 (whole entry, looked up): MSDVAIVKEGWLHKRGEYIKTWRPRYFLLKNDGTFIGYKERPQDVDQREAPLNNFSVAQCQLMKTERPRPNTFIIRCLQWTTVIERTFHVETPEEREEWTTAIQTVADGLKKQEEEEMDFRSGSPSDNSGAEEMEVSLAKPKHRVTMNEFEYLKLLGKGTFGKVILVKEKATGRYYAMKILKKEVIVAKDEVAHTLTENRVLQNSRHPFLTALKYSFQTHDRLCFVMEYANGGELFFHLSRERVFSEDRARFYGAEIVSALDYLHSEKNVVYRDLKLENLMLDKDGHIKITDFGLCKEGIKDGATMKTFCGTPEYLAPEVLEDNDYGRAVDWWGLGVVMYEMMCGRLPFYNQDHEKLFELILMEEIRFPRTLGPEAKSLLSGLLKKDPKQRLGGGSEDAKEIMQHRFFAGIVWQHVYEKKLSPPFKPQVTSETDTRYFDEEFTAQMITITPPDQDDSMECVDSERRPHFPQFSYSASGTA
Sequence of UniProt P23204 (whole entry, looked up): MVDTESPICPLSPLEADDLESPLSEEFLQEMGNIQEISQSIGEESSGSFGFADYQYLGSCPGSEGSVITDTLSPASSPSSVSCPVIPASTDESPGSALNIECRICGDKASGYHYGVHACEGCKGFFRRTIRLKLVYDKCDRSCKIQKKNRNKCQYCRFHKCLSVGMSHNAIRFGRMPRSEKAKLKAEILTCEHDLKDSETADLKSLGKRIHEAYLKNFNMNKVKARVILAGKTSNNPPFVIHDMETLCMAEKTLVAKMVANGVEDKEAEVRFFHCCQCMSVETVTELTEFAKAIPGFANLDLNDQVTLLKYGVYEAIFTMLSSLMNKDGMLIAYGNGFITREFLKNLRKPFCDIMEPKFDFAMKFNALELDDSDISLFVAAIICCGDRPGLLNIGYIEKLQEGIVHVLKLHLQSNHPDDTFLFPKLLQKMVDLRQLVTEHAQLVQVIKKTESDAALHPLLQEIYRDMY
Sequence of UniProt O43704 (whole entry, looked up): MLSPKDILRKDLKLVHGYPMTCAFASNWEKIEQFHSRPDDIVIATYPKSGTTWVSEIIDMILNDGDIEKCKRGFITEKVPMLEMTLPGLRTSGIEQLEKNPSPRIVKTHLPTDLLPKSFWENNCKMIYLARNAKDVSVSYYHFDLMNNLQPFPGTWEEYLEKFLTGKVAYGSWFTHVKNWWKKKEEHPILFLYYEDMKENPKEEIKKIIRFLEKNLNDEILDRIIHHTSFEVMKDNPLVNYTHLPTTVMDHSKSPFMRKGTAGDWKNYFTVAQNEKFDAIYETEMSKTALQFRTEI

SMILES = C#CCOc1ccccc1N1CCN(C(=O)c2cccc(S(=O)(=O)n3cnc(C4CC4)n3)c2)CC1; target or system = Glutathione S-transferase P, Y8 variant (GSTP1, Homo sapiens, UniProt P09211); assay = label-free LC-MS/MS chemoproteomics; system = COLO 205; setting = 100 µM, 4 h, 37 °C; endpoint = spectral count; value = 45
SMILES = CC[C@H](C)[C@H](NC(=O)[C@H](Cc1ccccc1)NC(=O)[C@H](CCC(=O)O)NC(=O)[C@H](CCCNC(=N)N)NC(=O)[C@H](C)NC(=O)[C@H](C)NC(=O)[C@H](CCC(N)=O)NC(=O)[C@H](CCC(=O)O)NC(=O)[C@H](CCC(=O)O)NC(=O)[C@H](CC(C)C)NC(=O)[C@H](Cc1ccc(O)cc1)NC(=O)[C@H](CO)NC(=O)[C@H](CO)NC(=O)[C@@H](NC(=O)[C@H](CC(=O)O)NC(=O)[C@H](CO)NC(=O)[C@@H](NC(=O)[C@H](Cc1ccccc1)NC(=O)[C@@H](NC(=O)CNC(=O)[C@H](CCC(=O)O)NC(=O)[C@H](C)NC(=O)CCc1cnc[nH]1)[C@@H](C)O)[C@@H](C)O)C(C)C)C(=O)N[C@@H](C)C(=O)N[C@@H](Cc1c[nH]c2ccccc12)C(=O)N[C@@H](CC(C)C)C(=O)N[C@H](C(=O)N[C@@H](CCCCNC(=O)COCCOCCNC(=O)COCCOCCNC(=O)CC[C@H](NC(=O)CCCCCCCCCCCCCCCCC(=O)O)C(=O)O)C(=O)NCC(=O)N[C@@H](CCCNC(=N)N)C(=O)N[C@@H](CCCCNc1c(NCCCCCN(O)C(=O)CCC(=O)NCCCCCN(O)C(=O)CCC(=O)NCCCCCN(O)C(C)=O)c(=O)c1=O)C(=O)NCC(=O)NCC(=O)N[C@@H](CO)C(=O)N[C@@H](CCCCNc1c(NCCCCCN(O)C(=O)CCC(=O)NCCCCCN(O)C(=O)CCC(=O)NCCCCCN(O)C(C)=O)c(=O)c1=O)C(=O)NCC(=O)NCC(=O)N[C@@H](CO)C(=O)N[C@@H](CCCCNc1c(NCCCCCN(O)C(=O)CCC(=O)NCCCCCN(O)C(=O)CCC(=O)NCCCCCN(O)C(C)=O)c(=O)c1=O)C(=O)NCC(=O)NCC(=O)N[C@@H](CO)C(=O)N[C@@H](CCCCNc1c(NCCCCCN(O)C(=O)CCC(=O)NCCCCCN(O)C(=O)CCC(=O)NCCCCCN(O)C(C)=O)c(=O)c1=O)C(=O)O)C(C)C; target or system = Glucagon-like peptide 1 receptor (GLP1R, Homo sapiens, UniProt P43220); assay = agonist, CRE luciferase reporter; system = BHK cells; setting = Zr-loaded DFO conjugate, together with: 1% HSA; how to read = reference: parent peptide; endpoint = fold potency loss; value = 2.3
SMILES = O=C(NCC1CCOCC1)c1ccc(C2CCCCC2)cc1; assay = liver microsome stability; system = cynomolgus liver microsomes; setting = 1 µM; endpoint = hepatic clearance; value = 40 mL/min/kg
SMILES = Cc1cc(Nc2ccc(S(F)(F)(F)(F)F)cc2)n2nc(C(C)(F)F)nc2n1; target or system = Plasmodium vivax; assay = 12-lead ECG; system = malaria patients; setting = oral, 400 mg, increase above 60 ms; endpoint = patients with QTcB increase; value = 0%
SMILES = CCCCN1/C(=C/C=C/c2sc3ccc(Br)cc3[n+]2CCCC)Sc2ccc(Br)cc21.[I-]; target or system = Histone-arginine methyltransferase CARM1 (CARM1, Homo sapiens, UniProt Q86X55); assay = inhibitor, filter binding; setting = together with: histone H3.3 substrate; endpoint = Hill coefficient; value = 1.32
SMILES = CSc1ccc(C(=O)/C=C/c2cc(C)c(OC(C)(C)C(=O)O)c(C)c2)cc1; target or system = Peroxisome proliferator-activated receptor alpha (Ppara, Mus musculus, UniProt P23204); assay = receptor activation, agonist; setting = species mouse; how to read = reference: internal control agonist; endpoint = Emax; value = 73%
SMILES = O=C(CO)NC1C(O)CC(OCC2OC(Oc3ccc([N+](=O)[O-])cc3)C(O)C(O)C2O)(C(=O)O)OC1C(O)C(O)CO (centres unmarked); target or system = Sialidase-2 (Homo sapiens, UniProt Q9Y3R4); assay = substrate; setting = 10 min, pH 5.0, 37 °C; endpoint = kcat; value = 0.28 ± 0.01 s⁻¹
SMILES = Oc1c(Br)cc(Oc2ccc(Br)cc2Br)cc1Br; target or system = Sulfotransferase 1B1 (SULT1B1, Homo sapiens, UniProt O43704); assay = sulfonation, substrate; endpoint = Vmax/Km; value = 548 µL/min/mg
SMILES = NC(=O)CCNC(=O)c1ccc([C@H]2[C@@H](F)[C@@H](F)C[C@@H](F)[C@H]2F)cc1; assay = hepatocyte stability; system = cryopreserved rat hepatocytes; setting = 1 µM; endpoint = hepatic clearance; value = 10 mL/min/kg
SMILES = O=C(COP(=O)(O)O)[C@@H](O)[C@H](O)[C@H](O)COP(=O)(O)O; target or system = Adenine phosphoribosyltransferase (Homo sapiens, UniProt P07741); assay = thermal proteome profiling, measured: APRT; system = HepG2 cell lysate; setting = concentration not given, 57 over 37 °C; how to read = reference: compound over control; endpoint = thermal stability ratio; value = 0.412 and 0.7 and 0.444
SMILES = O=C(O)c1ccc(Nc2c(-c3ccc(-c4ccccc4)cc3)nc3ccc(C(=O)O)cn23)cc1; target or system = Tyrosyl-DNA phosphodiesterase 2 (TDP2, Homo sapiens, UniProt O95551); assay = gel-based fluorescence; how to read = reference: TDP1 IC50 over TDP2 IC50; endpoint = selectivity ratio; value = > 34
SMILES = Cn1cc(-c2ccc(-c3cncc(Cl)c3N3CCC4(CCNC4=O)CC3)cc2)cn1; target or system = COLO 205; assay = gene expression, microarray, measured: ICAM1 mRNA; setting = concentration not given, 2 h; how to read = reference: untreated cells; endpoint = log2 fold change; value = 2.46
SMILES = O=C([O-])CN(CCN(CC(=O)[O-])Cc1cc(CCC(=O)NCCCCCC(=O)NCCCC[C@H](NC(=O)N[C@@H](CCC(=O)O)C(=O)O)C(=O)O)ccc1[O-])Cc1cc(CCC(=O)O)ccc1[O-].[68Ga+3].[OH3+]; target or system = Glutamate carboxypeptidase 2 (FOLH1, Homo sapiens, UniProt Q04609); assay = saturation binding; system = LNCaP; endpoint = Bmax; value = 19.8 µmol/mg
SMILES = Cc1cc(-c2ccnc3[nH]cc(F)c23)cc(F)c1[C@@]1(O)[C@H](C)CN(C(=O)CN)C[C@@H]1C; target or system = RAC-alpha serine/threonine-protein kinase (AKT1, Homo sapiens, UniProt P31749); assay = ATP/ADP probe binding, KiNativ; system = HEK293T lysate; setting = 10 µM, ATP loop peptide; endpoint = probe labelling inhibition; value = -43%

Some of these lines once more:
SMILES = O=C(COP(=O)(O)O)[C@@H](O)[C@H](O)[C@H](O)COP(=O)(O)O; target or system = Adenine phosphoribosyltransferase (Homo sapiens, UniProt P07741); assay = thermal proteome profiling, measured: APRT; system = HepG2 cell lysate; setting = concentration not given, 57 over 37 °C; how to read = reference: compound over control; endpoint = thermal stability ratio; value = 0.412 and 0.7 and 0.444
